Measured values gathered from unrelated publications.
A part holds a random share of what one study measured. Several values in a cell are separate wells, animals, samples, runs or records. pKd: −log10 of the molar value.

Set 1
SMILES: C[C@@H]1CN(c2ccc(-c3cc(C(=O)NCCOCCOCCOCCOCCNC(=O)/C=C/c4[nH]cc(C(=O)N[C@@H](CC(N)=O)c5ccc(F)c(Cl)c5)c4-c4ccc(Cl)cc4F)ccc3F)cc2NC(=O)c2c[nH]c(=O)cc2C(F)(F)F)C[C@H](C)N1C
Observed: thermal unfolding
Method: differential scanning fluorimetry
Concentration: 5.5 µM
Reading: higher = more unfolded
DCAF1: DDB1- and CUL4-associated factor 1 (DCAF1, Homo sapiens, UniProt Q9Y4B6)
UniProt Q9Y4B6, sequence (whole entry, looked up): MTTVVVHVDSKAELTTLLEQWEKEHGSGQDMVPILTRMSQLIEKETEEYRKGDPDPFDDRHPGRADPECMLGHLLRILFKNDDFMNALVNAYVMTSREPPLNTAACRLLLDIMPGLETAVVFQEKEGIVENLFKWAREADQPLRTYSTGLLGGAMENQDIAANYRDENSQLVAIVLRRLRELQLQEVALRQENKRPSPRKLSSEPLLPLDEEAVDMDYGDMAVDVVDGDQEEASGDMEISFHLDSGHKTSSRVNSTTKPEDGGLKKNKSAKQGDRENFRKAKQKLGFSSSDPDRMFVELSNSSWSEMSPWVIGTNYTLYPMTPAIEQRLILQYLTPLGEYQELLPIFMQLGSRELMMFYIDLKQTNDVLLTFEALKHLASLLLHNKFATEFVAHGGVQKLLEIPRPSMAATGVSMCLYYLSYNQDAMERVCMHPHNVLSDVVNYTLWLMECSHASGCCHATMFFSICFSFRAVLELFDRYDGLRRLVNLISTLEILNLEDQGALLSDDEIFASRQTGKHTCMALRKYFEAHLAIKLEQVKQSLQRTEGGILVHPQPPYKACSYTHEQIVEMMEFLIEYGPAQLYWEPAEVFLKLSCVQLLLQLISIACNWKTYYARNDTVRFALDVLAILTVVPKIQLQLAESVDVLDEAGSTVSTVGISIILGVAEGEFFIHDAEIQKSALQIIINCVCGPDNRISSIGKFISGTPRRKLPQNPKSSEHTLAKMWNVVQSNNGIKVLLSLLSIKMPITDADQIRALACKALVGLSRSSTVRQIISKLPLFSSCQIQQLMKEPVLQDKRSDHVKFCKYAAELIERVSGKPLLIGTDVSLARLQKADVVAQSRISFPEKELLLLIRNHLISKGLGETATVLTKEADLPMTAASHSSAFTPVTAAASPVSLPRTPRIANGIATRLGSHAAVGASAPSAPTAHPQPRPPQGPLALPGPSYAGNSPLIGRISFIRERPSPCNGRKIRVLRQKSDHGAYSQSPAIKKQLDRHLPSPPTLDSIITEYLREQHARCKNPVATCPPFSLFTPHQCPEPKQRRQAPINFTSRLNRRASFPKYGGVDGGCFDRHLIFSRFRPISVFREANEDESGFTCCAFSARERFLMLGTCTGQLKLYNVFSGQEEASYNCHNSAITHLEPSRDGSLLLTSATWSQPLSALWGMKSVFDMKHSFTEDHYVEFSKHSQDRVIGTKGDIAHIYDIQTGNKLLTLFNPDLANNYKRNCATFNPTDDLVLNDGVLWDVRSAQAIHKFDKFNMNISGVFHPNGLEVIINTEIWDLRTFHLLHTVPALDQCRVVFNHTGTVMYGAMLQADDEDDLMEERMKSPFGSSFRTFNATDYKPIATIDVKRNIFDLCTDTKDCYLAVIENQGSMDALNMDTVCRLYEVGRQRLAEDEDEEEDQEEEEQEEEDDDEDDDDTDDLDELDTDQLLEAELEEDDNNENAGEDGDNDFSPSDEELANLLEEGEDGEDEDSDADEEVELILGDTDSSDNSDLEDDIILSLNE
WDR5: WD repeat-containing protein 5 (WDR5, Homo sapiens, UniProt P61964)
target | temperature | SYPRO Orange fluorescence
DCAF1 | 46.8 °C | 13800 a.u.
WDR5 | 91.41 °C | 49200 a.u.
DCAF1 | 89.81 °C | 35300 a.u.
DCAF1 | 34.6 °C | 10100 a.u.
DCAF1 | 56.21 °C | 24600 a.u.
DCAF1 | 64.61 °C | 58200 a.u.
WDR5 | 31.8 °C | 12700 a.u.
DCAF1 | 42.4 °C | 12300 a.u.

Set 2
Method: ultracentrifugation
Matrix: mouse plasma
Concentration: 2 µM
Time: 4 h
pH: 7.4
Compound | fraction unbound
Cc1ccc(O)c(C)c1-c1cnc2[nH]c(-c3cnc(N4CCC(CN5CCN(c6cc7c(cc6F)c(N6CCC(=O)NC6=O)nn7C)CC5)CC4)nc3)cc2c1C#N | 0.013
Cc1ccc(O)c(C)c1-c1cnc2[nH]c(-c3cnc(N4CCC(CCN5CCN(c6ccc(NC7CCC(=O)NC7=O)cc6F)CC5)CC4)nc3)cc2c1C#N (centres unmarked) | 0.01
Cc1ccc(O)c(C)c1-c1cnc2[nH]c(-c3cnc(N4CCC(CN5CCN(c6ccc7c(c6F)CN(C6CCC(=O)NC6=O)C7=O)CC5)CC4)nc3)cc2c1C#N (centres unmarked) | 0.009
Cc1ccc(O)c(C)c1-c1cnc2[nH]c(-c3cnc(N4CCC(CN5CCC(c6ccc(NC7CCC(=O)NC7=O)cc6F)CC5)CC4)nc3)cc2c1C#N (centres unmarked) | 0.024
Cc1ccc(O)c(C)c1-c1cnc2[nH]c(-c3cnc(N4CCC5(CC4)CC(N4CCN(c6ccc(NC7CCC(=O)NC7=O)cc6F)CC4)CO5)nc3)cc2c1C#N (centres unmarked) | 0.026
Cc1ccc(O)c(C)c1-c1cnc2[nH]c(-c3cnc(N4CCC(CN5CCN(c6ccc7c(c6)C(=O)N(C6CCC(=O)NC6=O)C7=O)CC5)CC4)nc3)cc2c1C#N (centres unmarked) | 0.006

Set 3
Compound: O=c1[nH]c(=S)n(C[C@H]2CCCO2)c2nc[nH]c12
AOC3: Amine oxidase [copper-containing] 3 (AOC3, Homo sapiens, UniProt Q16853)
UniProt Q16853, sequence (whole entry, looked up): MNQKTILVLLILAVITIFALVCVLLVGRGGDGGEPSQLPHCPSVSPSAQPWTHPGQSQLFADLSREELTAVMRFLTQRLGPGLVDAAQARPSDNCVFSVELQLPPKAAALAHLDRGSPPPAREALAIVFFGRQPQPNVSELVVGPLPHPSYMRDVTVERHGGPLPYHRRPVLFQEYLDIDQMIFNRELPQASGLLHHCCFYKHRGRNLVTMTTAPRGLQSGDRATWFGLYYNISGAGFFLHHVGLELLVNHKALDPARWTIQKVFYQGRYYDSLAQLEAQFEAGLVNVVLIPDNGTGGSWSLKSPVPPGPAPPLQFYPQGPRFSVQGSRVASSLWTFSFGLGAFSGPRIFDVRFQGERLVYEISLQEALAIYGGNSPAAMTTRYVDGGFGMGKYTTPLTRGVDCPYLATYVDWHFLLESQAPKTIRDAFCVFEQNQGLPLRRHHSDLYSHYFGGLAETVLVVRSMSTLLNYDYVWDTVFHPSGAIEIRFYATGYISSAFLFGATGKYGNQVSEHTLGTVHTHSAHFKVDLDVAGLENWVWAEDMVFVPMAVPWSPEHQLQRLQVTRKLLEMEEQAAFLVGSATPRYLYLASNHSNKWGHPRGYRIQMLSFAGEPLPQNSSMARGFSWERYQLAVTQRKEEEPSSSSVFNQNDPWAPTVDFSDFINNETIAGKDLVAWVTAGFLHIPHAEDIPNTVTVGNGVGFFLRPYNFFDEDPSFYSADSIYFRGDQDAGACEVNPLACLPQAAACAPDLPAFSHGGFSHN
MPO: Myeloperoxidase (MPO, Homo sapiens, UniProt P05164)
UniProt P05164, sequence (whole entry, looked up): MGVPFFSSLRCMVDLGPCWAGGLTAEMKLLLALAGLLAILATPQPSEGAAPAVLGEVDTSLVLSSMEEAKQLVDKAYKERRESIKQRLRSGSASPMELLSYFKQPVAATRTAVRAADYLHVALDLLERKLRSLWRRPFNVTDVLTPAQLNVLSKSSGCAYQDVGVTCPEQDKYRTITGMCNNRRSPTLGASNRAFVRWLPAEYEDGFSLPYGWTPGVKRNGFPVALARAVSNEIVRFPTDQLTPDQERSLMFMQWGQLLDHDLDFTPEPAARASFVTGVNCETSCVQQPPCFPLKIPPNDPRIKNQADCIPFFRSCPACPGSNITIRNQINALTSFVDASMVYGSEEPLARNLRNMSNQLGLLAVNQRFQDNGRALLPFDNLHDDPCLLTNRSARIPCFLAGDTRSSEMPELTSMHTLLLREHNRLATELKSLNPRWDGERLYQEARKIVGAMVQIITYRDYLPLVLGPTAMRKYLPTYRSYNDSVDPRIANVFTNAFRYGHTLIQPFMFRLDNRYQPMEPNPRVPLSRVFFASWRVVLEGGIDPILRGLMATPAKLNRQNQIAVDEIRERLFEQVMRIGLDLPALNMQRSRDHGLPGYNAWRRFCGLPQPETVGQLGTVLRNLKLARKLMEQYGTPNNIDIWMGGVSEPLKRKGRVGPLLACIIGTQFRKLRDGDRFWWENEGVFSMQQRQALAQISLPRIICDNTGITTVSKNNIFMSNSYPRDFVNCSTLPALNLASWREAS
target | observed | mode | method | concentration | inhibition
AOC3 | enzyme activity | inhibitor | fluorescence | 1.4 nM | -7.84%
AOC3 | enzyme activity | inhibitor | fluorescence | 4.1 nM | -12.4%
MPO | enzyme activity |  |  | 0.0015 µM | -1.15% and -8.59% and -15.5% and -22.5% and -1.8% and -14.4%
MPO |  |  | Amplex Red | 10 µM | 101%
AOC3 | enzyme activity | inhibitor | fluorescence | 0.3333 µM | -22.6%
MPO | enzyme activity |  |  | 0.0023 µM | -11.7% and 17% and 1.15% and -14.8% and -13.5% and -3.88% and -5.44%
MPO | enzyme activity | inhibitor | fluorescence | 5 µM | 100%
MPO |  |  | Amplex Red | 3.333 µM | 100%

Single results of other studies
SMILES | target or system | assay | test system | conditions | quantity | result
CCN1CCN(Cc2ccc(COc3c(-c4c(C)c(F)cc5[nH]ncc45)c(C4CC4)cc4c(N5C[C@@H]6C[C@H]5CN6)nc(OC5CCOCC5)nc34)cc2)C(=O)C1 | AsPC-1 (KRAS G12D) | CellTiter-Glo |  | 300 pM | viability | 78.2% and 80.3% and 79.5% and 91.4%
Cc1ncsc1-c1ccc(C2(NC(=O)C3CC(O)CN3C(=O)C(NC(=O)c3ccc(COc4c(-c5c(C)c(F)cc6[nH]ncc56)c(C5CC5)cc5c(N6CC7CC6CN7)nc(OC6CCOCC6)nc45)cc3)C(C)C)CC2)cc1 (centres unmarked) | GTPase KRas, GDP-bound (KRAS, Homo sapiens, UniProt P01116, G12D) | binder, single-cycle SPR |  | binary, without VCB | dissociation rate constant (kd) | 0.00941 s⁻¹ and 0.0101 s⁻¹ and 0.00883 s⁻¹
Cc1ncsc1-c1ccc(C2(NC(=O)C3CC(O)CN3C(=O)C(NC(=O)c3ccc(COc4c(-c5c(C)c(F)cc6[nH]ncc56)c(C5CC5)cc5c(N6CC7CC6CN7)nc(OC6CCOCC6)nc45)cc3)C(C)(C)C)CC2)cc1 (centres unmarked) | KRAS/VHL, GDP-bound (Homo sapiens, UniProt P01116+P40337, G12D) | SPR, single-cycle | immobilized KRAS G12D | ternary, geometric mean, added: VCB complex | koff | 13 s⁻¹
Cc1ncsc1-c1ccc(C(CO)NC(=O)C2CC(O)CN2C(=O)C(C(C)C)n2cc(-c3ccc(COc4c(-c5c(C)c(F)cc6[nH]ncc56)c(C5CC5)cc5c(N6CC7CC6CN7)nc(OC6CCOCC6)nc45)cc3)nn2)cc1 (centres unmarked) | von Hippel-Lindau disease tumor suppressor, with Elongin B/C (VHL, Homo sapiens, UniProt P40337) | SPR, single-cycle | immobilized VCB complex | binary, geometric mean | pKd | 8.13
